# Measurements of several laboratories.
# Lines come from different studies, so protocols differ. ± gives the spread as reported.
# Sequence of UniProt P04746 (whole entry, looked up): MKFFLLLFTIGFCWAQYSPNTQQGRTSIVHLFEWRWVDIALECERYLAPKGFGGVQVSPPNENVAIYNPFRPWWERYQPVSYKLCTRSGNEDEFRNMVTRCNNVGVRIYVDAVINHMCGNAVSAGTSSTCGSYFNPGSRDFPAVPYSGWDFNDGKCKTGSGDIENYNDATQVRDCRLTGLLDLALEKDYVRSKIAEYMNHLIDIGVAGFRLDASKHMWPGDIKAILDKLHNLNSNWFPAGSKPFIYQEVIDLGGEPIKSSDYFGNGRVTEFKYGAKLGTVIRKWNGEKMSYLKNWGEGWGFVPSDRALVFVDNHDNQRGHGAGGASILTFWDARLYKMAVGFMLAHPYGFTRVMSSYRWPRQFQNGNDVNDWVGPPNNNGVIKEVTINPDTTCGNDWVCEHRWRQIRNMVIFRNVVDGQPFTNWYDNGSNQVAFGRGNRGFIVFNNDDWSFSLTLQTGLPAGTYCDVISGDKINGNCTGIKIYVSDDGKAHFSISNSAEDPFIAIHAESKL
# Sequence of UniProt P11309 (whole entry, looked up): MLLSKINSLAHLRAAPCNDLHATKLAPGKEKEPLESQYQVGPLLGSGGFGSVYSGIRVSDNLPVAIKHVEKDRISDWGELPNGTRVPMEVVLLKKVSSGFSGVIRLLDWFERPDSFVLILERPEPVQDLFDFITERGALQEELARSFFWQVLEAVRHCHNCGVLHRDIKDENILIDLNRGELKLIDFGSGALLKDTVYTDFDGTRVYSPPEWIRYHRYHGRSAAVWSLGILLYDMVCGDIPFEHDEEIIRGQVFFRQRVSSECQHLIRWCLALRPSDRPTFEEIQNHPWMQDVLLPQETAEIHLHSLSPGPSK
Compound,tested on,assay,test system,setting,quantity,value
O=C(Nc1cc(-c2ccc(Cl)cc2)[nH]n1)C1CCCCC1,"Serine/threonine-protein kinase pim-1 (PIM1, Homo sapiens, UniProt P11309)","enzyme activity, Dundee kinase panel",,10 µM,remaining activity,87%
O=C(O)c1cn(Cc2ccc(C(F)(F)F)cc2)c2ccc(Oc3ccccc3)cc2c1=O,MDA-MB-231,,,72 h,CC50,38.2 ± 0.86 µM
COc1ccc(N=Nc2c(N)nn3c(-c4ccc(Cl)cc4Cl)cc(-c4ccc(OCc5ccccc5)cc4)nc23)cc1,Enterococcus faecalis,broth microdilution,MTCC 0459,,MBC/MIC ratio,4
CCOc1c([C@H](C)n2nc(C)c3c(N)ncnc32)cc(Cl)c(F)c1[C@@H]1CNC(=O)C1,,,"patients, monotherapy","oral, 30 mg once daily, cycle 1 day 15",half-life geometric mean,8 h
COc1cc(/C=N/NC(=S)N/N=C/c2ccc(C)cc2)ccc1Oc1ccnc2cc(Cl)ccc12,"Pancreatic alpha-amylase (Homo sapiens, UniProt P04746)","enzyme activity, inhibitor, DNS method",,with: starch substrate,IC50,24.1 ± 0.3 µg/mL

# Repeated from above:
Compound,tested on,assay,test system,setting,quantity,value
COc1ccc(N=Nc2c(N)nn3c(-c4ccc(Cl)cc4Cl)cc(-c4ccc(OCc5ccccc5)cc4)nc23)cc1,Enterococcus faecalis,broth microdilution,MTCC 0459,,MBC/MIC ratio,4
